Published values collected from several papers.
Lines come from different studies, so protocols differ. Values joined by “and” are separate records of one study, mostly repeats; a detail may differ. ± marks the error that the study gave.

| SMILES | assay | test system | setting | scale | measurement | value |
| --- | --- | --- | --- | --- | --- | --- |
| Cn1cc([C@H]2C[C@H]3CSC(N)=N[C@@]3(c3ccc(F)cc3F)CO2)cn1 | refers to: Aβx-40 | Mus musculus wild-type, cerebrospinal fluid | subcutaneous, 50 mg/kg, 18 h |  | Aβ40 level | 1.98 ng/mL |
| CN[C@@H]1COc2c(S(=O)(=O)NC(=O)Nc3c4c(cc5c3CCC5)CCC4)cnn2C1 | refers to: IL-1β | human participants, whole blood ex vivo | 300 mg twice daily, multiple doses, 96 h, with: LPS/ATP | relative to: baseline | inhibition | 97.7% |
| CCOc1c([C@H](C)n2nc(C)c3c(N)ncnc32)cc(Cl)c(F)c1[C@@H]1CNC(=O)C1 | Olink proximity extension, refers to: IL2-RA | human FL or MZL patients, plasma | dose not given, week 8 day 1, once-daily dosing | relative to: baseline | percent change in level | -43% |
| CC(C)NCC(O)c1ccc(O)c(O)c1 (stereo not drawn) |  | ventricular cardiomyocytes, C57BL/6 mouse | dose not given, 0.376 s |  | sarcomere length | 1.72 µm |
| COc1ccccc1[C@H](Cn1c(=O)n(C(C)(C)C(=O)O)c(=O)c2c(C)c(-c3ncco3)sc21)OC1CCOCC1 | [1-13C]acetate infusion, isotopomer analysis | overweight or obese healthy men, plasma VLDL-TG palmitate | oral, 50 mg single dose, 0 h relative to dose, fasted baseline |  | fractional hepatic DNL | 5.12 % new palmitate |
| CO[C@H]1CC[C@H](N2C(=O)CNc3ncc(-c4ccc(C(C)(C)O)nc4)nc32)CC1 | flow cytometry | stimulated T cells, human, blood | 60 mg single dose, 3 h, median | relative to: baseline | p4EBP1 change from baseline | -44.3% |
| O=C(NO)c1ccc(CN(c2cnccn2)c2cnccn2)cc1 |  | human | dose not given, patients, paired sample, pre-treatment on A |  | plasma IL-10 level | no effect |
| N#Cc1ccc2c(-c3ccncc3)c(-c3ccc(F)cc3)nn2c1 | kinase binding, competitor, MIB/MS competition, refers to: PKH3 | Candida albicans cell lysate | 10 µM | relative to: DMSO | log2 fold change | -0.168 |
| Cc1cc(C)c(CNC(=O)c2cc(Cl)c3c(c2C)O[C@@](C)([C@H]2CC[C@H](N(C)C)CC2)O3)c(=O)[nH]1 |  | relapsed/refractory NHL patients, PTCL | oral, dose not given |  | best overall response PR | 15.4% |
| c1ccc(-c2n[nH]cc2-c2ccnc3ccccc23)nc1 | kinase binding, competitor, MIB/MS competition, refers to: RTK1 | Candida albicans cell lysate | 1 µM | relative to: DMSO | log2 fold change | 1.22 |
| COc1ncc(-c2nc3c(n2C(C)C)[C@H](c2ccc(Cl)cc2)N(c2cc(Cl)cn(C)c2=O)C3=O)c(OC)n1 | International Working Group criteria | human acute myeloid leukemia patients | oral, 250 mg, response Unknown, high-dose, recommended dose for expansion |  | best overall response | 0% |
| O[C@H]1CCCN[C@@H]1CCCn1cnc2c(Cl)c(Cl)ccc21 | ELISA, refers to: Pro-C6 | healthy human volunteers, serum | 50 mg, day 1, multiple ascending dose |  | maximum reduction | 11.3% |
| COc1cc(O)c(CC=C(C)C)c(O)c1C(=O)/C=C/c1ccc(O)cc1 | glucose tolerance test | Tac:SW mice (male, conventional, high-fat diet) | in diet, 60 mg/kg per day, 15 min after glucose, after 10 weeks |  | blood glucose | 201 mg/dL |
| CC1(C)CCC(CN2CCN(c3ccc(C(=O)NS(=O)(=O)c4ccc(NCC5CCOCC5)c([N+](=O)[O-])c4)c(Oc4cnc5[nH]ccc5c4)c3)CC2)=C(c2ccc(Cl)cc2)C1 | cell killing | canine blood CD3+ T cells, dog 30 | 24 h |  | EC50 | 0.011 µM |
| OC[C@H]1O[C@@H](c2ccc(Cl)c(Cc3ccc(O[C@H]4CCOC4)cc3)c2)[C@H](O)[C@@H](O)[C@@H]1O |  | Japanese type 1 diabetes patients | 10 mg, day 7, 168 h | relative to: baseline | diastolic blood pressure change | -0.5 mmHg |
| N#Cc1ccn2c(-c3ccncc3)c(-c3ccc(F)cc3)nc2c1 | kinase binding, competitor, MIB/MS competition, refers to: CMK2 | Candida albicans cell lysate | 10 µM | relative to: DMSO | log2 fold change | -0.593 |
| N=C(N)NCCC[C@H](NC(=O)[C@H](CCCNC(=N)N)NC(=O)[C@H](CCCCN)NC(=O)[C@H](CCC(N)=O)NC(=O)[C@H](CCCCN)NC(=O)[C@H](Cc1ccc(O)cc1)NC(=O)[C@@H](N)CCCCN)C(=O)N[C@@H](CO)C(=O)N[C@@H](Cc1ccc(O)cc1)C(=O)N[C@@H](CCCCN)C(=O)O |  | dentin hypersensitivity patients aged 30-40 years | 5 µg/tooth, day 36, unit not given | relative to: baseline | median VAS change | -52 |
| CC(c1cc2ccccc2s1)N(O)C(N)=O (stereo not drawn) | refers to: TXB2 | human whole blood | 3 µM, with: Escherichia coli |  | amount | 24700 ± 13100 pg/mL blood |
| OC(CCN1CCCCC1)(c1ccccc1)C1CC2C=CC1C2 (stereo not drawn) | resting-state EEG | healthy elderly humans | oral, 2 mg, eyes closed, LS mean |  | EEG gamma power, O2 Pz | 1 µV² |
| CCc1c(C)nc(-c2ccc(Cl)s2)nc1Nc1ccc(CC(=O)O)cc1 |  | C57BL/6J mice, high-fat diet, liver | intraperitoneal, 0.3 mg/kg daily, 60% fat diet 12 weeks, dosed last four | relative to: vehicle | triglyceride content | decreased |
| N#Cc1ccc2c(c1)[C@H]1CCCN(C(=O)c3ccc4[nH]cnc4c3)[C@H]1C2 | refers to: androstenedione | human male, Phase II trial | oral, 240 mg once daily, last treatment, HPA axis, mean |  | plasma level | 8.78 nmol/L |
| Cc1ccc([C@@H]2O[C@H](CO)[C@@H](O)[C@H](O)[C@H]2O)cc1Cc1ccc(-c2ccc(F)cc2)s1 |  | Japanese type 2 diabetes patients | 200 mg, day 16 | relative to: day 0 | change, mean 24 h, plasma glucose | -57 mg/dL |
| COc1ccc2c(c1)CN(Cc1ccc(C(=O)O)cc1)CCS2 |  | exercised mdx mice | 50 mg/kg, 3 weeks |  | forelimb grip strength | 0.166 ± 0.008 kgf |

| SMILES | assay | test system | setting | scale | measurement | value |
| --- | --- | --- | --- | --- | --- | --- |
| CC(C)c1ncc(C(=O)N2CCOC3(CCN(Cc4ccc(F)c(CCNC[C@H](O)c5ccc(O)c6[nH]c(=O)sc56)c4)CC3)C2)s1 |  | COPD patients | inhaled, 100 µg twice daily, 12 h postdose, dosing day 1 | relative to: baseline | placebo-corrected trough FEV1 change | 18 mL |
| CC(=O)Oc1cc2c(s1)CCN(C(C(=O)C1CC1)c1ccccc1F)C2 (stereo not drawn) | platelet aggregation, light transmittance aggregometry | human, platelet-rich plasma | 30 min, IPA above 80 %, with: TRAP 15 µM | relative to: patients | patients with IPA above threshold | 0% |
| C=CC(=O)N1CCC(c2ccc(C(N)=O)c(-c3ccc(Oc4ccccc4)cc3)n2)CC1 | tumour response, Lugano classification | patients with relapsed/refractory MCL | dose not given, investigator assessed, 16.4 months follow-up |  | CR | 32.1% |
| C[C@H]1C[C@H]2CSC(N)=N[C@@]2(c2nc(NC(=O)c3ccc(OC(F)F)cn3)cs2)CO1 | refers to: total Aβ | healthy adults, plasma | 12 mg single dose, 8 h post-dose | relative to: placebo | percent change from baseline | -46.9% |
| COc1cc(Nc2ncc3c(n2)-c2ccc(Cl)cc2C(c2c(F)cccc2OC)=NC3)ccc1C(=O)O |  | female NOD/scid mice, ALL-8 T-cell ALL xenograft | 20.8 mg/kg, 5 days weekly, score scale 0 to 10 | direction not given | median response score | 10 |
| Cc1c(C)c2c(c(C)c1O)CCC(C)(COc1ccc(CC3SC(=O)NC3=O)cc1)O2 (stereo not drawn) | RNA-seq pathway analysis, refers to: inflammatory pathway genes | liver spheroids | concentration not given, 24 h and 10 d |  | gene expression | decreased |
| Cn1cc(Nc2nccc(-c3ccc4c(c3)CN(C3COC3)CC[C@H]4NC(=O)c3cn(C(C)(C)C)nn3)n2)cn1 | refers to: Huntington's Disease Signaling | splenic B cells, Mus musculus | 30 mg/kg, with: IgD activation | relative to: vehicle, direction not given | pathway activation z-score | 2.2 |
| O=C1CCC(N2Cc3cc(CNC(=O)C(F)(F)c4ccc(Cl)cc4)ccc3C2=O)C(=O)N1 (stereo not drawn) | deuterium-hydrogen exchange | aqueous phosphate buffer | pH 7.4, 37 °C |  | exchange rate constant | -0.0233 h⁻¹ |
| Oc1nc2nonc2cc1Nc1c(F)c(F)c(F)c(F)c1F | glucose tolerance test | Western diet-fed mice | in diet, 130 mg/kg/day, end of treatment | relative to: Western diet control | blood glucose | decreased |
| NC(=O)c1cnc2[nH]ccc2c1N[C@@H]1[C@@H]2CC3C[C@H]1C[C@@](O)(C3)C2 | total naive T cells, flow cytometry | Japanese humans, peripheral blood | 200 mg single dose | relative to: baseline | percent change | 0.02% |
| C[C@@H](O)CCOC(=O)C[C@@H](C)O |  | human | oral drink, dose not given, 90 min post dose, median, all participants |  | plasma glucagon | 18 pM |
| C=CCn1c(=O)c2cnc(Nc3ccc(N4CCN(C)CC4)cc3)nc2n1-c1ccc2c(n1)[C@@](O)(CC)CC2 |  | SW-620 xenograft, BALB/c nude mice | oral, 80 mg/kg, day 20, once daily x 21 |  | tumour volume difference | 1030 ± 55.1 mm3 |
| NCC(=O)Nc1cncc(-c2nn3c(=O)cc(N4CCNCC4)nc3s2)c1 | ADP-induced platelet aggregation, light transmission aggregometry | human, stable CAD on aspirin, ex vivo platelets | subcutaneous, 0.04 mg/kg, 60 min post-dose, median value, with: ADP 20 µM |  | inhibition | 28.6% |
| COc1ccc(F)cc1C(=O)NCc1ccc(-c2nn([C@@H](C)C(F)(F)F)c(N)c2C(N)=O)cc1 |  | relapsed/refractory CLL patients | dose not given, monotherapy |  | response, best overall, PR, PR-L | 80% |
| C[C@H](Oc1ccc(Br)cc1-c1ccon1)C(=O)O | muscle velocity recovery cycles | human, tibialis anterior muscle | 1200 mg single dose, 3.5 h post-dose, frequency ramp, first response at 30 Hz | relative to: placebo | latency change | -2.15% |
| Cc1noc(C)c1-c1cc(C(O)(c2ccccn2)c2ccccn2)c2nc(C3CC3)[nH]c2c1 | refers to: CCR2 expression | human, peripheral blood | 3 mg, day 15, 1604 study, with: enzalutamide |  | maximum inhibition | 46% |
| C[C@H]1O[C@@H](O[C@H]2CC[C@@]3(C)[C@@H](CC[C@]4(C)[C@@H]3C=C[C@]35OC[C@@]6(CCC(C)(C)C[C@H]63)[C@@H](O)C[C@]54C)[C@]2(C)CO)[C@H](O)[C@@H](O[C@@H]2O[C@H](CO)[C@@H](O)[C@H](O)[C@H]2O)[C@H]1O |  | chronic-plus-binge ethanol mice, plasma | oral, 15 mg/kg/day for 7 d, 168 h |  | triglyceride level | 0.8 mM and 0.744 mM and 0.715 mM and 0.832 mM and 0.686 mM and 0.914 mM |
| Cc1cc(C)c(CNC(=O)c2cc(Cl)c3c(c2C)O[C@@](C)([C@H]2CC[C@H](N(C)C)CC2)O3)c(=O)[nH]1 |  | relapsed/refractory ATLL patients | dose not given, modified ATLL criteria 2009 |  | best overall response stable disease | 7% |
| COc1ccc(-c2cncc(N[C@@H](C)c3cccc(NC(=O)c4cncc(C)c4)c3)n2)cc1OC | refers to: rno-miR-374-5p | rat SU5416/hypoxia model, lung | dose not given, unit not given | relative to: SU5416/hypoxia vehicle | delta delta Ct | 0.317 |
| C[C@@H](NC(=O)N1C(=O)[C@H](Cc2ccnc(N)c2)[C@H]1C(=O)O)C1CCCCC1 |  | human | iv infusion, 1.5 mg/kg/h, 24 h |  | time to aPTT Emax | 72 h |
| O=C(O)CNC(=O)Cc1ccccc1 |  | ventricular cardiomyocytes, C57BL/6 mouse | dose not given, 0.256 s |  | sarcomere length | 1.66 µm |
| CCN1CCN(Cc2ccc(Nc3ncc(F)c(-c4cc(F)c5nc6n(c5c4)[C@H](C)CCC6)n3)nc2)CC1 |  | human advanced solid tumours | 500 mg, phase Ia monotherapy RECIST 1.1 |  | not evaluable response | 0% |
